# Published values of several laboratories.
# Each numbered part is a random draw from the data of one study; scales do not carry over between parts.

# Block 1
# Target: RING finger protein unkempt homolog, zinc fingers 1-6, GST-SBP tag (UNK, Homo sapiens, UniProt Q9C0B0, residues 30-357)
# UniProt Q9C0B0, sequence (30-357, looked up): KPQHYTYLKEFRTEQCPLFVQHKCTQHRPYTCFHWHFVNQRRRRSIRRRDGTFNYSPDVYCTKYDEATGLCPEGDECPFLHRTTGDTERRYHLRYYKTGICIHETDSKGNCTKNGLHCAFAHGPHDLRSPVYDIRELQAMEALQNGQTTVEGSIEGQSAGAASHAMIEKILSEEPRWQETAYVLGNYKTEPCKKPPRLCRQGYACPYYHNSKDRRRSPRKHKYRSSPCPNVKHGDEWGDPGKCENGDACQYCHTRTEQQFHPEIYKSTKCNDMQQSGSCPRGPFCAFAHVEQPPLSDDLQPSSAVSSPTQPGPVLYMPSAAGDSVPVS
# Method: RNA Bind-n-Seq
# Form: RNA
# Sample: in vitro
# Concentration: not given
# Setting: RNA with constant flanks, human-mouse chimeric sites, ends assumed
# Relative to: input RNA pool
# Direction: higher = stronger binding
Strand,bound/input enrichment [ratio]
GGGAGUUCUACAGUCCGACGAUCUUACCCGAGAACGAGGAUGAGCUGGAGAGCACCAAUAGGCGCUACACCAAGAGGGACUGCAGCACUUUCCUCAGAACUAGUGAGACGGGCAUCGUGGACCAGGUCAUGGUAACUCUCAACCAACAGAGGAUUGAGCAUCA,0.136
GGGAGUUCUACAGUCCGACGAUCGGACAUCUGUCAAAUUGUUAUGUUCCUGUGAAACAAGUGAACACUCUGAUACACUUCAUCUGCUUGUACAUCUGUAUUUGUAUAAUACAGAAAUCUAUUAAUCCAAGCAAUGUGUCACUUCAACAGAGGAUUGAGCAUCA,0.134
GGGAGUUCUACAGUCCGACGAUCUCAUUUUGCUCGGGUUAUUCUUUCCUUUAGGAAAAGCAGAUUAGACUGGUUGUAAGAAAAACAGAAGCCAUGUUUCGAAGACCUGUGUUACAGGUAUUUCGUCAGUUUGUAAGACAUGAGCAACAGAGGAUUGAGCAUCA,1.18
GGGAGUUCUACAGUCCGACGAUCAGAUUCCCUCUCUUAAAACCUCCUCCGAAGUUGGAGUCUCUUACAGAUGCCUCAUCCCCUGUUAGCGUUUUAGUUUGGACCACCCAGCCUUGGACAAUUCCAGCCAACCAGGCAAUUUGCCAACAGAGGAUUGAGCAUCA,1.93
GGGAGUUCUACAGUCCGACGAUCCUGAGGAUACCACUGAAGAGACCUUAAAAGAAUCAUUUGAGGGCUCUGUUCGUGCAAAGGAUAGUUACUGACCGGGAACUGGUUCUUCCAAAGGGUUUGGUUUUGUAGACUUUAAUAGUGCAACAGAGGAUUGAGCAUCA,0.848
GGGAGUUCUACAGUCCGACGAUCGAACCUGCUCUCUCUGAAGAAGAGGAAGAAGACAAUGAUGAUGUUGAACCCAUUUCUGAAUUUCGAUUUGUGCCCAGUGAUAAGUCAGCAUUGGAGGCGAUGUUCACAGCAAUGUGUGAGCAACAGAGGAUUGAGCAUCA,0.273
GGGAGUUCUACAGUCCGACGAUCAAUUUCCUGUCAUACUUUGUAGCAAGACACAUCAGACUUACAGAGCACCUGGCCACAUUCUAGGUUUGUGUUAUUUCUAAGCCUUUUAUAUGAUCAAAUGAGAACACUGCUUAACUAAUGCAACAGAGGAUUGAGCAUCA,0.158
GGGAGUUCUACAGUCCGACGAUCAUCAAAUACUUUGGGGACAUCAUUAGUGUGGGACAGAGACUGUUGCAAGGGGCCCGGAUCUUAGGGAUUCCUGUUAUCAUAACGGAACAAUACCCCAAAGGACUUGGCAGCACCGUUCAACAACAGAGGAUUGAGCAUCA,0.199
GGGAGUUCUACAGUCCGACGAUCUUACCCGAGAACGAGGAUGAGCUGGAGAGCACCAACAGGCGCUACACCAAGAGGGACUGUAGCACUUUCCUCAGAACUAGUGAGACGGGCAUCGUGGACCAGGUCAUGGUCACUCUCAACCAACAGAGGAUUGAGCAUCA,0.261
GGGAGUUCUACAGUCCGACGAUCAGUACUGACUCAGGCGGAUUUUGCAACACCAAGCUCACAGCAGCAGCUCCAUAGUCACAGUAGGGUAGUUUUGGGGCUCUGUGGCCAGGGUUUUAUUCACAUGCAGGUUUGGAAAAUGUACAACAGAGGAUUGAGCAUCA,0.642
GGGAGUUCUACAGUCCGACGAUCUGUGAACUGUCUCUUGAUUGGGGUCUACAAGAUGACUUUUCCUGGCACAUAUUCCAAAGCAAAGACUUUGUUGCCUGCUGCUUCUUGUCUAAUUUACAGGGAUAUUUAAUUUUGUCAGGUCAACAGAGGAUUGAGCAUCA,0.286

# Block 2
# Target: Ras GTPase-activating protein-binding protein 1, RRM domain (G3BP1, Homo sapiens, UniProt Q13283)
# UniProt Q13283, sequence (whole entry, looked up): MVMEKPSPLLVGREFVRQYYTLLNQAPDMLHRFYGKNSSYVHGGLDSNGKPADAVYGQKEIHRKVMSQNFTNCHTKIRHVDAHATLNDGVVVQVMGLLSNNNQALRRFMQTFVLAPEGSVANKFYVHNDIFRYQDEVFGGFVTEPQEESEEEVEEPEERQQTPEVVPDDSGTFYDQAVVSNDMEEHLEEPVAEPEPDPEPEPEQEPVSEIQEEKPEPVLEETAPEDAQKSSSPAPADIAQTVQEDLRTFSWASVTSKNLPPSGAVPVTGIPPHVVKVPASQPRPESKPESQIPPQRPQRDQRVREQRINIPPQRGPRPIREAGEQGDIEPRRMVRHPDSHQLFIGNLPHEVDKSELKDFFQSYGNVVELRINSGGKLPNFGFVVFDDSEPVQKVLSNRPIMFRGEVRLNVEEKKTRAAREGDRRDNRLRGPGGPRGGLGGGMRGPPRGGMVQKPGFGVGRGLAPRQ
# Method: RNA Bind-n-Seq
# Form: RNA
# Sample: in vitro
# Concentration: 1 µM
# Setting: whole 134-nt RNA, ends assumed
# Together with: 150 mM KCl
# Relative to: input library
# Direction: higher = stronger binding
Strand,log2 enrichment
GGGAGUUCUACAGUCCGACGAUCCCUGUGCUACACAUCGUAUGUACCGAAUCGGGGUUUUUUUGGGGUUUUUGGGGUUUGGGGAAAGUAUUAUGUUACGCCGUUCGGAUCUGCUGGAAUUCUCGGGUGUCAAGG,0.473
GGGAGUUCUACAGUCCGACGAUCCAAGUCCUGUGCUACACAUCGUAUGUACCGAAUCGGGGUUUGGGUUUGGUUUGGGGAAAGUAUUAUGUUACGCCGUUCGGAUCUGCACUUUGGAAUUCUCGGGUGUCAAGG,-0.293
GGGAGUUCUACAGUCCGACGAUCCACAGACAACACGCACCCACACAGACACAGAGGGAAGGGGUUGGGAUGGGGACAGGGUGCACAGCAGGGCGGGGUAGGACCCCGGCCCCUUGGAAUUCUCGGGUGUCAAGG,-0.491
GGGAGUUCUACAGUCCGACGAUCGUCCUGUGCUACACAUCGUAUGUACCGAAUCGGGGAGGGGUUUUUUUGGGGUUUGGGGAAAGUAUUAUGUUACGCCGUUCGGAUCUGCACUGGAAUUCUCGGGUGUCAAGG,0.921
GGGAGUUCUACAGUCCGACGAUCACCAUGCAGCUGGGCAUCUUUGGGAAGUGGGGCAAGGGGGGGAUAGGGAGGGGGGUAACACUUUGGGAACAGGUGGUCCCAGGUCGUUUCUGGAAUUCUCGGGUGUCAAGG,-0.356
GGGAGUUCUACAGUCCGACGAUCAAGUCCUGUGCUACACAUCGUAUGUACCGAAUCGGGAGGGUUUUUGGGUUUUUGGGAAAGUAUUAUGUUACGCCGUUCGGAUCUGCACUUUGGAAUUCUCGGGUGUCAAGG,0.381
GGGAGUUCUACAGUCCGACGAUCUCCUGUGCUACACAUCGUAUGUACCGAAUCAAACCCCCAAACCCCCCCAAACCCCCAAAAAAGUAUUAUGUUACGCCGUUCGGAUCUGCAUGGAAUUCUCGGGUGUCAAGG,-0.119
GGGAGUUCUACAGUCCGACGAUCCUCAAGUCCUGUGCUACACAUCGUAUGUACCGAAUCGGGGCCGGCCGGGCCGGAAAGUAUUAUGUUACGCCGUUCGGAUCUGCACUUCCAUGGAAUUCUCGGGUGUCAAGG,-0.383
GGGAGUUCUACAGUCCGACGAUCCCUGUGCUACACAUCGUAUGUACCGAAUCAAAUUUUUUUAAACCCCCCCAAAUUUUUAAAAAAGUAUUAUGUUACGCCGUUCGGAUCUGCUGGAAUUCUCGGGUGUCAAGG,-1.01
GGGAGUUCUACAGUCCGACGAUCCUGUGCUACACAUCGUAUGUACCGAAUCGGGUUUUUUUGGGGUUUUUUUGGGGUUUUUUUGGAAAGUAUUAUGUUACGCCGUUCGGAUCUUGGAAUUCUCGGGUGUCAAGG,-0.143
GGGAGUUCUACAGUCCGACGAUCUCCUCAAGUCCUGUGCUACACAUCGUAUGUACCGAAUCGGAGGAGGAGGGGAAAGUAUUAUGUUACGCCGUUCGGAUCUGCACUUCCAGCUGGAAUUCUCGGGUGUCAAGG,-0.302
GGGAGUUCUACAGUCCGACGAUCCAAGUCCUGUGCUACACAUCGUAUGUACCGAAUCGGUUUUUUUGGUGGAAAAAGGAAAGUAUUAUGUUACGCCGUUCGGAUCUGCACUUCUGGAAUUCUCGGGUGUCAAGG,-0.287
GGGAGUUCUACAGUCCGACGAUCCUCAAGUCCUGUGCUACACAUCGUAUGUACCGAAUCGGUUGGUUGGGUUGGGGAAAGUAUUAUGUUACGCCGUUCGGAUCUGCACUUCCAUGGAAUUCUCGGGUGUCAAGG,-0.215
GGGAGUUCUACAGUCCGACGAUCCAAGUCCUGUGCUACACAUCGUAUGUACCGAAUCGGGUUUGGGAAAAAGGGUGGGAAAGUAUUAUGUUACGCCGUUCGGAUCUGCACUUCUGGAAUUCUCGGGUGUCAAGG,0.844

# Block 3
# Target: Prothrombin, mature alpha-thrombin (F2, Homo sapiens, UniProt P00734)
# Method: aptamer microarray, sandwich
# Form: DNA with 2'F-ANA
# Sample: in vitro
# Concentration: 200 nM
# Setting: whole 15-mer aptamer, many near background
# Together with: Cy3 exosite-II aptamer, 400 nM
# Direction: higher = stronger binding
# Strand: GGTTGGTGTGGTTGG
Modification,mean fluorescence intensity [a.u.]
2'F-ANA at 1 3 4 5 7 8 9 10 13 14 15,51.7
2'F-ANA at 1 2 3 6 7 8 9 11 12 13,255
2'F-ANA at 1 4 5 7 13 14,54.7
2'F-ANA at 1 6 7 10 12 13 14 15,53
2'F-ANA at 1 2 3 4 10 12 13 14 15,75.8
2'F-ANA at 2 4 7 12 14,203
2'F-ANA at 1 2 3 6 7 8 10 14 15,108
2'F-ANA at 1 2 3 5 6 11 12,173
2'F-ANA at 1 2 3 4 6 7 10 12 13 14,58.8
2'F-ANA at 2 4 5 8 9 14 15,46.5
2'F-ANA at 2 4 5 6 9 13 14 15,50.3
2'F-ANA at 2 3 4 9 11 14 15,263
2'F-ANA at 2 3 5 6 7 8 9 14,52.7
2'F-ANA at 3 5 6 8 9 11 12,238
2'F-ANA at 1 3 4 5 6 8 11 13 14,55
2'F-ANA at 1 3 4 5 7 14,46.7
2'F-ANA at 2 3 4 8 9 10 14,191
2'F-ANA at 3 6 8 9 11 12 13 15,879
2'F-ANA at 1 5 8 9 11 14 15,52.4
2'F-ANA at 2 4 5 15,65.2
2'F-ANA at 1 2 4 6 7 8 9 13 14,51.4
2'F-ANA at 1 5 11 12 15,82.1
2'F-ANA at 1 2 4 6 7 9 11 13 14 15,50.1
2'F-ANA at 3 4 5 7 8 9 13 15,78.5
2'F-ANA at 3 4 7 10 15,323

# Block 4
# Target: Histone acetyltransferase KAT6A, both winged helices, GST fusion (KAT6A, Homo sapiens, UniProt Q92794, residues 1-181)
# Method: protein binding microarray
# Form: double-stranded DNA, one strand shown
# Sample: in vitro
# Concentration: not given
# Setting: 8-mer, flanks averaged, mean of 2 arrays, mostly near background
# Relative to: not given
# Direction: higher = stronger binding
# Construct (chain): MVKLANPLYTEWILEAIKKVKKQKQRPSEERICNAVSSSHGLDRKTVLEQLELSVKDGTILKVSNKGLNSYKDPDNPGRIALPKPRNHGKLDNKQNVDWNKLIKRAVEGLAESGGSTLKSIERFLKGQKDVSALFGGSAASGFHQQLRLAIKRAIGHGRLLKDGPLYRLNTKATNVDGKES
Strand,E-score
CGGGCTAG,0.114
AAACCCGC,0.231
CAAGAGGG,-0.129
GAGGCGAA,-0.0103
AGATATAG,-0.045
AGGAACAA,-0.0961
ACGCTCTA,0.0247
ATGCTTTC,-0.0326
GAGCTTCC,0.102
ACACCAAA,-0.0319
CCATGAAC,-0.103
CTGACTGA,-0.142
AGATCTAT,0.015
AATTTGTC,-0.0836
GCGCGAGA,0.252
ACCGAGAG,-0.094
TACAATAA,-0.0959
CTGTCGGA,0.0605
CGTAGCAC,0.198
AGAGTTCA,-0.268
GCTTTCGA,-0.00673
CTGCCAGC,-0.109
AGTCTACA,-0.137

# Repeated from above (block 4):
Strand,E-score
CCATGAAC,-0.103
CTGACTGA,-0.142
AGATCTAT,0.015
AATTTGTC,-0.0836
GCGCGAGA,0.252
ACCGAGAG,-0.094
TACAATAA,-0.0959
CTGTCGGA,0.0605
